{"data": "Published values of several laboratories", "note": "A part holds a random share of what one study measured."}
{"data": "Set 1", "target": "Histone acetyltransferase KAT6A, winged helix 2, GST fusion (KAT6A, Homo sapiens, UniProt Q92794, residues 85-181)", "method": "protein binding microarray", "form": "double-stranded DNA, one strand shown", "sample": "in vitro", "tested at": "not given", "notes": "8-mer, flanks averaged, mean of 2 arrays, mostly near background", "baseline": "not given", "direction": "higher = stronger binding", "Target sequence (chain)": "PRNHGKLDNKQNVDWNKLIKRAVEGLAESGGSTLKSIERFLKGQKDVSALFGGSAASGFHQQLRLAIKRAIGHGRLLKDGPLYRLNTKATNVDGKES"}
{"Sequence": "CACGTTCG", "E-score": -0.207}
{"Sequence": "ACGAGCTC", "E-score": 0.115}
{"Sequence": "AGATTCAG", "E-score": 0.12}
{"Sequence": "ATATGTCC", "E-score": -0.0474}
{"Sequence": "ATGGAAAC", "E-score": -0.157}
{"Sequence": "AAGTTCAC", "E-score": -0.00268}
{"Sequence": "CCTGCTAA", "E-score": -0.0271}
{"Sequence": "ATTAAAGG", "E-score": 0.14}
{"Sequence": "TAACGAGA", "E-score": -0.0713}
{"Sequence": "CCTTTTAA", "E-score": -0.119}
{"Sequence": "ATGCCGTC", "E-score": 0.162}
{"Sequence": "TCCCCAAA", "E-score": -0.0309}
{"Sequence": "AGTCGAGG", "E-score": 0.0915}
{"Sequence": "ACAGACGA", "E-score": -0.0575}
{"Sequence": "ATGCAACG", "E-score": 0.00694}
{"Sequence": "CATAATCC", "E-score": -0.161}
{"Sequence": "AATATTCT", "E-score": -0.188}
{"Sequence": "CAGGCGAG", "E-score": 0.182}
{"data": "Set 2", "target": "Sal-like protein 4, full length isoform A (SALL4, Homo sapiens, UniProt Q9UJQ4, residues 1-1053)", "method": "universal PBM", "form": "double-stranded DNA, one strand shown", "sample": "in vitro", "tested at": "600 nM", "notes": "8-mer, flanks averaged, mean of replicates", "direction": "higher = stronger binding", "UniProt Q9UJQ4, sequence (whole entry, looked up)": "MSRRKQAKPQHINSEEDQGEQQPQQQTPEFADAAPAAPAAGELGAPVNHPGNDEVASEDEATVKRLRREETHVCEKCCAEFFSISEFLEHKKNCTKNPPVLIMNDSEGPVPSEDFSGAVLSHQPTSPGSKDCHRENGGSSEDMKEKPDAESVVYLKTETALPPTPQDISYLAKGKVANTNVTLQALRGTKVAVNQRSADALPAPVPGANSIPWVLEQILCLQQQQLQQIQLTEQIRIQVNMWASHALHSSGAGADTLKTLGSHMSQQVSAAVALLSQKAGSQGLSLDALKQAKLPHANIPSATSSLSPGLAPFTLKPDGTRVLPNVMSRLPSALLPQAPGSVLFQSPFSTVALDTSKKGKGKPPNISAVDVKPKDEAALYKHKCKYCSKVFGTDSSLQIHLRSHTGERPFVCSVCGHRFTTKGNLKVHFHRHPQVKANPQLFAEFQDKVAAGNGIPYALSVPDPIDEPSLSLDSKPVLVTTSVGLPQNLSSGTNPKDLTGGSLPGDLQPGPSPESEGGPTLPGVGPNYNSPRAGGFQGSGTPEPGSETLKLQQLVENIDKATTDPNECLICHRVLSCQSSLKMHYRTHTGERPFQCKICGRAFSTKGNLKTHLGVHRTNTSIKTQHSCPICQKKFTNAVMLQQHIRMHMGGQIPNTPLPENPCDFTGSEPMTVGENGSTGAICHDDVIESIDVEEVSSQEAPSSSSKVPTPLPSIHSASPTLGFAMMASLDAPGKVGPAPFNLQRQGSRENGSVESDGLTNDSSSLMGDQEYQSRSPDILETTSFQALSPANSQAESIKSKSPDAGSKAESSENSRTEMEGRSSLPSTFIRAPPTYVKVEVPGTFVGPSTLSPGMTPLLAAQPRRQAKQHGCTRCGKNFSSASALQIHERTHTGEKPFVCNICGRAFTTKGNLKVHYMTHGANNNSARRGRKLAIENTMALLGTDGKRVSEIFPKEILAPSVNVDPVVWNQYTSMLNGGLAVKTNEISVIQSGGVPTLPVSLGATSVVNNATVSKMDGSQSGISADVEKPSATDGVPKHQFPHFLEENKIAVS"}
{"Sequence": "ACAGCCCC", "E-score": -0.32}
{"Sequence": "GTTGTGAA", "E-score": 0.179}
{"Sequence": "AAGGAATG", "E-score": 0.148}
{"Sequence": "ACCGTCGA", "E-score": -0.168}
{"Sequence": "CTGTGAAC", "E-score": -0.00634}
{"Sequence": "AACTGGAT", "E-score": 0.0794}
{"Sequence": "TGCATTAA", "E-score": 0.197}
{"Sequence": "CCACCTTA", "E-score": -0.00651}
{"Sequence": "GGGTTACC", "E-score": -0.284}
{"Sequence": "CTAGTTCC", "E-score": 0.026}
{"Sequence": "CGTCCCGC", "E-score": -0.272}
{"Sequence": "GAATCCGC", "E-score": -0.277}
{"Sequence": "ACGTGCAA", "E-score": -0.0424}
{"Sequence": "CGATCAAA", "E-score": 0.00451}
{"Sequence": "AGAGCACA", "E-score": -0.0885}
{"Sequence": "CGCATTAC", "E-score": 0.0675}
{"Sequence": "ATACCCCA", "E-score": -0.0134}
{"Sequence": "AGGTTAGC", "E-score": -0.18}
{"Sequence": "GTGCACCA", "E-score": -0.0978}
{"Sequence": "TAAATGAA", "E-score": 0.254}
{"Sequence": "GGACCAAC", "E-score": -0.269}
{"Sequence": "AGTCGCCC", "E-score": -0.24}
{"Sequence": "ATTTCGCA", "E-score": 0.105}
{"Sequence": "GAGGATGC", "E-score": -0.219}
{"Sequence": "AAGCGTGT", "E-score": 0.0393}
{"data": "Set 3", "target": "Hepatocyte nuclear factor 3-alpha (Foxa1, Mus musculus, UniProt P35582, residues 1-468, full length assumed)", "method": "EMSA with sequencing", "form": "double-stranded DNA, one strand shown", "sample": "in vitro", "tested at": "10 and 20 nM", "notes": "whole designed probe, mean of two concentrations, ends assumed", "baseline": "negative control set to 0", "direction": "higher = stronger binding", "constant ends, left off below": "GTGAGCGGTGCCCATTGATGGGGAAC … TTTCACTGGGATCGTGGGGAC", "UniProt P35582, sequence (whole entry, looked up)": "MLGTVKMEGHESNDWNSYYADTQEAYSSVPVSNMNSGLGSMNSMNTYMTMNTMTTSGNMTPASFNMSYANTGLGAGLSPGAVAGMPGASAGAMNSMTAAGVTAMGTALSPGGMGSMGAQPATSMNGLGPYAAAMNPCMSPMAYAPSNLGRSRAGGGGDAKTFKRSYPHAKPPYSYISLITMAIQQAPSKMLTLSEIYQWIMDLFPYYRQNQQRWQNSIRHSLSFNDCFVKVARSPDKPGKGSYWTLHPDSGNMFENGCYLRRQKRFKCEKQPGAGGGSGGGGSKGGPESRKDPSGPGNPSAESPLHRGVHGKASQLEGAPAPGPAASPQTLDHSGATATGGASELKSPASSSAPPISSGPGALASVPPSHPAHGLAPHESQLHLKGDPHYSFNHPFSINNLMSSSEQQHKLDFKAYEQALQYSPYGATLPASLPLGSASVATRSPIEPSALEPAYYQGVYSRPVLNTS"}
{"Sequence": "ACTCAAATTCACTTGGGACTGATGGTTTCATTTCTCTTCTCCCACACTAGGTGGCCAGACCAGCAAGACTTAAGCTTTGTTTAACTTGTCAAAGATTACAGAAGTGCAGGTTGCCAAAATTCTCTCTGCACCCTGACTCCCACTCCCTTTTTTAATTTTTTATTTTATTTTTTGAAATGGAGTCTTGCTCTGT", "normalised bound fraction [ratio]": 0.13}
{"Sequence": "AACAACCAGGAGGAAACAGGGTGATTATTGATTCAAGAGAAAACAGAATATTTGTGGATTTAGGGTCAATAAAACAACCTCCACAAATGTTAAAGTAAACAAGGAAAAATATAGCTTTAAAAAATGGACAACTAGGAGAATTTCTTTTCACATAGCAATGCAATTTTCTCCTCACAGTGATAGTCATAATTTC", "normalised bound fraction [ratio]": 0.453}
{"Sequence": "CTCTTGTGATGAAAATTAAAGTTGTTATATAATCTCTATTATATAGTAAAATGATTTTTTTCTCAGGAATTACATCAACTCAAAGAAGTCTCTGTTTACTTTGACATCTGAACTTTCACTTTATCCGCTAGTTATAATTCCTTGGTTATCATTATCATTACATAAATTTTTCTTTCTGAAAATGGATGATAGT", "normalised bound fraction [ratio]": 0.393}
{"Sequence": "GACTTTTACACAGGCATCATGGGAGTAAGCCCAAGATATTTTCTCACACTTGATTCCAGGCATGTGGGGTTTGGTTTCTTGATCAAATATCTGTGTTTGCTCTGTTTACAAGTATCTGATGAGCAAAACCAACAGAGGTGCTCCAGACAGGCTGGCTGTGCTGATCCCTTGGAAAAGAATTAAACAAAACCCA", "normalised bound fraction [ratio]": 0.237}
{"Sequence": "CTTTACCCTCCATGTTACAGGATTTTTTAAAAGAGTATCATTATATACAAAAAGTTAGAGTTCGCTGGTTAGAATGAGAACCATTCAAGGCAAAGTAAACATAAACTCTCCTGTCCCAAAGGGTGTTAACTAGGTCCGCTTTCATGTGCATCAGACGATACACCTATAGCAAGCACACACAGCAGTGCTAGGC", "normalised bound fraction [ratio]": 0.419}
{"Sequence": "CCCATGTTAAGAGGCCAGGCAGACAGACCTAGGGCTGGATCTGCAGATAAGTCATCTACACTGGACCCTTGGCTTTGCTTTTAATTGGTTCAAAAATTGCACAGTGACATCACACCTGCGCCTTACCTACTCAATAACAAGCTTTCTCTCAGTCACCCAGAAGAAACTGCAAAGAAAAGCAAATTGTTTCAGG", "normalised bound fraction [ratio]": -0.0155}
{"Sequence": "ATACACATAAACCAAGAGAAACAAAATACAATATTTATGTGTATATCTTTCTCATTGAACTTCACATTGCTAGAAGTATTTTTCTAAAGACAATGTAATCTTGTCATTTCACTACTAAAAATTTTTTAGTAGATAATATCAATTGCTTTAAGAATAAAACAATTTTTAAAATAATTATATGAAAAAAGTTCTC", "normalised bound fraction [ratio]": 0.0652}
{"Sequence": "ATCTTCCCCCTCTTCCTTGCCCCACCAGCTCACCTACGGGGGTTATTTGCAGATAGGAAAATAAATAAAGCCGGCATTCGTTAACCCTCTTCACGCGCATACTGCTGTTTGCTCTGGATGAATCATGGTCCTTTGGCGAGGCGTGGCTCCGGGAGAGCAAAGCACCGTGTCAGGGCCATGATCCGGGGTGGCC", "normalised bound fraction [ratio]": 0.343}
{"data": "Set 4", "target": "RNA binding protein fox-1 homolog 2, RRM domain, GST-SBP tag (RBFOX2, Homo sapiens, UniProt O43251-10, residues 100-194)", "method": "RNA Bind-n-Seq", "form": "RNA", "sample": "in vitro", "tested at": "365 nM", "notes": "natural RNA segment, single round, ends assumed", "baseline": "no-protein control", "direction": "higher = stronger binding", "constant ends, left off below": "GGGAGUUCUACAGUCCGACGAUC … UGGAAUUCUCGGGUGCCAA", "Target sequence (chain)": "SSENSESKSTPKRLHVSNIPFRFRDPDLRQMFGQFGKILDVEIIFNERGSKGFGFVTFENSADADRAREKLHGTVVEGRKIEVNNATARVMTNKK"}
{"Sequence": "UAUGGGCCGUUUAUAUACCUUUGGUGAAAUGUCUAUUUAAAUCUUUUGCUCACUUUUCAGUUGGGUUUUUUUUCUUAUUAAAUAGUAAGAGUUCUUAAUAUAUUCUGGAU", "RBNS enrichment (R)": 0.637}
{"Sequence": "UGGUGGGGGCAGAUCCUGCACACACAGACACAGCGUCUGCCCCCGAGCCAUUCCCUGGAGACCCUGGGUCUACCCCAGGUGGUCGUCAUCUGGGCCAUUUGCCUUACUUC", "RBNS enrichment (R)": 0.229}
{"Sequence": "ACUGCCAGCGUGGAGAGAGGAAGAGUCUAAUUAAAGGGAGGAUAUAAAAGGAUGAUUUCUGUUUUCAUCUACUUAUGUGGAGUAUGACUCACACUUCUAUAUUUGCACUG", "RBNS enrichment (R)": 1.35}
{"Sequence": "UGCACCUAACCAACACCUCCAGGGGCUCGCUAAGGAGCCCCCCUCCACCCCCUGAAUGGGUGUGGCUUGUGGCCAUAUUGACAGACCAAUCUAUGGGACUAGGGGGAUUG", "RBNS enrichment (R)": 0.62}
{"Sequence": "ACCAGGAGGAUCUGCGCACGGUGCACAGCCCACCAGAGCACUACAGCCUUUUAUUGAGUGGGGCAAGUGCUGGGCUGUGGUCGUGCCCUGACAGCAUCUUCCCCAGGCAG", "RBNS enrichment (R)": 0.516}
{"Sequence": "AGUAUAUAGAUAUAUAAAGUACUGUAGUUUACAGCUAGGCCUUGAGAUAUCUUUUUAGGAUCUGUUAGGAAUAAGAUUGAUAUUGUAUUGUGUGUAACCUGCACAAUGUG", "RBNS enrichment (R)": 0.449}
{"Sequence": "UAGCGUGUUCAUUCAGAUAAUGUUUUCUUACUAGGAAUUACAAACUUAAAACAUUUUUCAACCUUUAACAUAUUUUGUAAAAACUUAGGGGAGUCAAUUCCUCCAUUUUU", "RBNS enrichment (R)": 0.79}
{"Sequence": "GCUUGGGUCUCAGGGGAGAUAUGCUUAAGGCCAGAGCUCUUCCUCAGUAUUUGAUUUUUCCAGUGUUUGUUUUUUAAAAAACUGACAGGUGCUACAUUUCUAUCUGUUGG", "RBNS enrichment (R)": 1.26}
{"Sequence": "AGUCUGUCCCUAUUUAUGUAUGGUGGUUGAGGGCUGUGUGGCCAGGACCAAGAGCAAGGCCCAGCUUCUGCUGGCCAAUCGUGUUCCUUCAGAUCACCCACAAUAAAGCG", "RBNS enrichment (R)": 0.267}
{"Sequence": "GCCUACCUUGAGGUCUCAUGAAAGCUCCUGGAGCUGUGUGGUUGUCUUUGGUGCUGUUAACCCUUGGCUCCAUUUGACCAUCAAUCUGAGCAAUGAGCAAAGCAAUAUCA", "RBNS enrichment (R)": 0.376}
{"Sequence": "GUAGCAAACAGCCACUUAGUGCUUUGUCCUGGACUCCACUCAGCCUCAGGAUGGGGAAUAGCCAAGAAUGGCAGCCUCAGCGCAGAGGCAAGGUCAGAAAGAGACGGCGC", "RBNS enrichment (R)": 0.231}
{"Sequence": "UCCAUCCAUCCAUCCAUCCAUCCAUCCAUCCAUCCAUCCAUUCGUCAGCCUACAUUCAACAAACGCCUCUUGAAUGUCUAUGAUUCCCCCAGACACAUGCUGACAGACAC", "RBNS enrichment (R)": 1.07}
{"note": "Some of these lines once more (set 1):"}
{"Sequence": "ATTAAAGG", "E-score": 0.14}
{"Sequence": "TAACGAGA", "E-score": -0.0713}
{"Sequence": "CCTTTTAA", "E-score": -0.119}
{"Sequence": "ATGCCGTC", "E-score": 0.162}
{"Sequence": "TCCCCAAA", "E-score": -0.0309}
{"Sequence": "AGTCGAGG", "E-score": 0.0915}
{"Sequence": "ACAGACGA", "E-score": -0.0575}
{"Sequence": "ATGCAACG", "E-score": 0.00694}
{"Sequence": "CATAATCC", "E-score": -0.161}
